Results collected from several papers.
Parts stem from different laboratories: compare values within a part only. Positions count from the first letter of the parent shown.

Block 1
Target: RING finger protein unkempt homolog, zinc fingers 1-6, GST-SBP tag (UNK, Homo sapiens, UniProt Q9C0B0, residues 30-357)
Method: RNA Bind-n-Seq
Molecule type: RNA
Medium: in vitro
Tested at: not given
Setting: RNA with constant flanks, human and mouse sites, ends assumed
Relative to: input RNA pool
Reading: higher = stronger binding
Shared flanks, not repeated: GGGAGUUCUACAGUCCGACGAUC … CAACAGAGGAUUGAGCAUCA
Target sequence (chain): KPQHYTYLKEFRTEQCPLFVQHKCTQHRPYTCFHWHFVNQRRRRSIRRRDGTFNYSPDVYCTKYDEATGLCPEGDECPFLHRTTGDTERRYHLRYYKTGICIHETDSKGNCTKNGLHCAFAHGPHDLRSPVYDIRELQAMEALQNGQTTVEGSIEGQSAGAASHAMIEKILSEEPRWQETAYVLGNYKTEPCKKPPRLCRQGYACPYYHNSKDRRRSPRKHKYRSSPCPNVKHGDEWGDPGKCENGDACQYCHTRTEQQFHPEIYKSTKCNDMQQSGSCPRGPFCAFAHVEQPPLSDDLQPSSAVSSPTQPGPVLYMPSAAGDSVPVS
Sequence | bound/input enrichment
UAACAGUGUGUUAAACUACUUUAUUGCUACAUUUAAAGGACUGUAUUUUCAUACUUUUUGCAUUUUACCUAUCAUCUACCAGUUUCCAUGUGCAUUGGGUUGCACACUAAGAUGUAUUUU | 0.301 ratio
AGAAAAUUGUGCUACAGUGUGUGUGUGCGUGUGUGUAUGUGUAGUGCUAGGAGUCCACAGUAGGUUGCUUGUCAAGCCAUUGCCGUGACAAUGGCAUCUCUUAUAUUGACCCAAAAACCA | 0.361 ratio
UCAGGGGGCACGCUGAGUGGCGGCAUUCUCUCCAGUGGCAAGGGAAAAUAUAGCAGGUUAGAAGUUCAAGCCGAUGUCCAAAAGGAAAUUUUCCCCAAAGACACAGCCAGUCUUGGUGCA | 0.256 ratio
UUAUGGGGGAAGGGGGGGGUUCUUUAAAAUUUCUGUGGUUUGUGGCUUUUUCUUCCAUACAUUAGUUCCCACCAUCGCAUGCCCAGGGACCACUGCCUGGCAUUAUCGCAUGCUGGGAUC | 0.758 ratio
AUAAAGGAGGAAGAAGACGACAUUUCUGACAAGGGCAGUGAUUCUGAAGAGGAAGAAACCAAUAGAGAUUCUCAGAGUGAGAAAGAAGAUGGUAGUGACAGGGAGUCUGAUAGAGAGCAA | 1.28 ratio
UAUCCUGGUGGGGAGUCAUACCAGGACCUGGUGCAGCGGCUGGAGCCUGUCAUCAUGGAGCUGGAACGUCAGGGCAAUGUCCUCGUCAUCUCCCACCAGGCUGUCAUGCGCUGCCUCCUG | 0.0618 ratio
AUCAGAAAUCUUUUUAGAGAAGCAAAAGCAAAUGCUCCUUGUGUUAUAUUCAUCGAUGAAUUAGAUUCUGUUGGUGGAAAGAGAAUUGAAUCUCCAAUGCACCCGUAUUCAAGGCAGACG | 0.6 ratio
GUGGUGAACCGACCUCCAACUCCUCCCCCACCGUACAGUGCCUUCCAGCUCCAACAGCAGCAGCAGCUGCUGCCACCUCCUCCUCAGGGUGGCCCUCCAGGUGGCAGCCCCCCAGGCGCU | 0.759 ratio

Block 2
Target: Interferon regulatory factor 3, full length, phosphomimetic (IRF3, Homo sapiens, UniProt Q14653, residues 1-427, S386D/S396D/S398D/S402D/T404D/S405D)
Method: protein-binding microarray
Molecule type: double-stranded DNA, one strand shown
Medium: in vitro
Tested at: 2540 nM top
Setting: 60-bp whole probe
With: salmon DNA 0.4 mg/ml
Relative to: random background probes
Reading: higher = stronger binding
Shared flanks, not repeated: GCCTAGCAC … GTCTTGATTCGCTTGACGCTGCTG
Residues (chain): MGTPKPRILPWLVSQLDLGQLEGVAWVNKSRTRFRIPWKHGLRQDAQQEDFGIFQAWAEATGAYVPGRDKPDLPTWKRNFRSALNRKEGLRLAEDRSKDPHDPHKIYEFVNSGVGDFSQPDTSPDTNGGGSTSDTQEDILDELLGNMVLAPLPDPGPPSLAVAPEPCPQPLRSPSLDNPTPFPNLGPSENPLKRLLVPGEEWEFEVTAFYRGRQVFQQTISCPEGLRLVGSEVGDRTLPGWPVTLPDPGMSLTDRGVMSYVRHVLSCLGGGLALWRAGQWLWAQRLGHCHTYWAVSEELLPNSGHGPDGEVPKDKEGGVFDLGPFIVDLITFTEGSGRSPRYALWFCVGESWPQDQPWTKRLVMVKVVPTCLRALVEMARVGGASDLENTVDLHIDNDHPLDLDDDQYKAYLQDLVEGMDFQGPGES
Sequence | fitted relative affinity [z-score]
CTGTCTGAGGACACCCTGGCGTGCTAG | 0.393
GTCGATTTCAGACTGGAGACGTGCTAG | 1.97
ACCGCATTCGAATTCAGAATGTGCTAG | 1.67
GACGAACTGAGTATCGACACGTGCTAG | 0.232
TCATGTCTCAGAGTCCTACTGTGCTAG | 0.153
TCTTTTTTTTCTTTAAAAGTGTGCTAG | 2.27
TCAACTCTTTACATGGGACTGTGCTAG | 0.312
GAGGAACTGAGACTGGAGACGTGCTAG | -0.671
GACGGTTTCCATTTCCTGACGTGCTAG | 8.33
GACGGTTCCCTTTTCTTGACGTGCTAG | 5.93
GACGGTTCCTTTTTCCTGACGTGCTAG | 6.29
TTAGATATCGGGACGGGATTAGTGCTA | -0.124
GACGATTTCGGGTATAGAGACGTGCTA | 1.78
TTAGAACTGCGTTTCGATTAGTGCTAG | 1.83
GACGGTATCCTACTGGTGACGTGCTAG | 2.67
AACTTTCTCTGCTCTTTTCAAGTGCTA | 2.05
GAAGGTCTCGGTTTCGGGACGTGCTAG | 3.7
GACAATCTCAGTATCGAGACGTGCTAG | 0.75
TACGGTCTCGGTATCGGGACGTGCTAG | 1.87

Block 3
Target: Histone acetyltransferase KAT6A, winged helix 2, GST fusion (KAT6A, Homo sapiens, UniProt Q92794, residues 85-181)
Method: protein binding microarray
Molecule type: double-stranded DNA, one strand shown
Medium: in vitro
Tested at: not given
Setting: 8-mer, flanks averaged, mean of 2 arrays, mostly near background
Relative to: not given
Reading: higher = stronger binding
Residues (chain): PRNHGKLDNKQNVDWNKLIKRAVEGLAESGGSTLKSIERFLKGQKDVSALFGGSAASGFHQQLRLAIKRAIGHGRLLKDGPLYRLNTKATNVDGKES
Sequence | E-score
AGCGACGC | 0.11
CAGCCGTA | -0.0211
TCAGCCGA | 0.116
CAATTATG | -0.041
ACTGGACT | -0.053
AGCTTACT | -0.0241
AGTATTTG | -0.0826
GTAACAGA | -0.0235
ACCTCGTA | -0.131
ATCTGCGC | 0.0476
GAGCATTA | -0.0134
ACTACGCC | -0.075
AAAGTTCG | 0.125
AATCCGTC | -0.04
CTTCAAAA | 0.146
ATGAGTAG | -0.13
AGACTCCC | -0.0764
AAGGCGAG | 0.0719
AAACGCGC | 0.00642
CAAGCTCA | -0.0344
ATTTGTCA | -0.125
CGCCGGCA | 0.241
AAGAGCGA | 0.0776
ACAGGCCA | 0.0171
GCGCCCCA | 0.21

Block 4
Target: CCND2, cyclin fold, Cln2 fusion (human)
Method: yeast growth competition, sequencing
Medium: yeast
Setting: weak parent motif
Relative to: not given
Reading: higher = stronger binding
Starting sequence: DNAH7 docking peptide (human); HELFQRLDFDNDG
Variant | normalised enrichment score
HELFQRLDFANDG [D10A] | -0.111
HELFQRLDADNDG [F9A] | -0.259
HELFQRADFDNDG [L7A] | -0.276
HELFQRLAFDNDG [D8A] | -0.0469
HELFQRLDFDNDA [G13A] | -0.0602
HELFQRLDFDNAG [D12A] | 0.0156
